Results gathered from unrelated publications.
Parts stem from different laboratories: compare values within a part only. Changes are numbered by the printed parent chain.

Study 1 — target: CCNB2, cyclin fold, Cln2 fusion (human); technique: yeast growth competition, sequencing; medium: yeast; setting: strong parent motif; reference: not given; reading: higher = stronger binding; starting sequence: viral docking peptide; TSVRRALFTGGSD
| Variant | normalised enrichment score |
| --- | --- |
| S2E | 0.833 |
| L7Y | 0.634 |
| R4G | -0.41 |
| A6S | 0.224 |
| T9L | 0.588 |
| S2L | 0.592 |
| S12D | 1.18 |
| R4I | 0.416 |
| S12V | 0.746 |
| G11Y | 0.284 |
| G10P | 0.273 |
| V3K | 0.336 |
| R5A | 0.215 |
| F8W | 0.305 |

Study 2 — technique: RNA Bind-n-Seq; molecule type: RNA; medium: in vitro; tested at: 20 nM; setting: 6-mer, flanks averaged, single round; with: 150 mM LiCl; reference: input library; reading: higher = stronger binding
Target: TAR DNA-binding protein 43, full length, His tag (TARDBP, Homo sapiens, UniProt Q13148, residues 1-414)
| Strand | 6-mer enrichment (R) |
| --- | --- |
| UAAAUC | 0.864 |
| AAGGGG | 1.22 |
| AAAUAA | 1.03 |
| CCGGGG | 1.1 |
| CAAAAG | 0.832 |
| CUGACA | 0.883 |
| GCCGGG | 1.09 |
| UGGCUU | 0.99 |

Study 3 — target: JDP2, bZIP domain (human); technique: DHFR protein complementation; medium: yeast; reference: wild-type JUN-FOS pair; reading: higher = stronger binding
Setting: single substitutions, most at no-binding floor
Starting sequence: JUN, bZIP domain (human); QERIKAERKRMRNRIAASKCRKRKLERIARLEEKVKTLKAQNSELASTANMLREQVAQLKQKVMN; partner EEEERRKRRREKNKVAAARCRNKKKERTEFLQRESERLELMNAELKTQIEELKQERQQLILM
| Variant | binding fitness [natural log] |
| --- | --- |
| S47W | 0.211 |
| V56D | -0.936 |
| E54Q | 0.0035 |
| K39P | -0.577 |
| K34T | 0.31 |
| K34S | 0.35 |
| S43D | 0.292 |
| L31T | 0.11 |

Study 4 — observed: peptide-MHC binding; molecule type: peptide; tested at: concentration not given
Target: HLA class I histocompatibility antigen, A alpha chain, allele A*80:01 (Homo sapiens, UniProt P04439)
| Molecule | binding |
| --- | --- |
| SVMSTFFWE | inactive |
| TKAGMAQYL | inactive |
| PQVLGGLSF | inactive |

Excerpt of the above (study 3):
| Variant | binding fitness [natural log] |
| --- | --- |
| K39P | -0.577 |
| S47W | 0.211 |
| E54Q | 0.0035 |
| K34T | 0.31 |
| K34S | 0.35 |
